Published values gathered from unrelated publications.
A part holds a random share of what one study measured. Substitutions count along the parent as printed.

Series 1 — target: CCNE2, cyclin fold, Cln2 fusion (human); technique: yeast growth competition, sequencing; medium: yeast; setting: weak parent motif; baseline: not given; reading: higher = stronger binding; quantity: normalised enrichment score
Starting sequence: DNAH7 docking peptide (human); HELFQRLDFDNDG; partner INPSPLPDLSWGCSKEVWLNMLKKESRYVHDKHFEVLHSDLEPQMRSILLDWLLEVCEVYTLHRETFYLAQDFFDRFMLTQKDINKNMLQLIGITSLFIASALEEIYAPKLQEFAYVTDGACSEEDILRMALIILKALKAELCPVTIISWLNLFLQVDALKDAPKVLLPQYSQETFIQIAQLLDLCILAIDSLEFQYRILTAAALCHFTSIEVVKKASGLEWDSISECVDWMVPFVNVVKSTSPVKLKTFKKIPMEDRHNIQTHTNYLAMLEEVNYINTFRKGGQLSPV
Substitution = H1A; value = -0.0238
Substitution = F9A; value = -0.358
Substitution = G13A; value = -0.503
Substitution = Q5A; value = 0.106
Substitution = N11A; value = -0.0891
Substitution = E2A; value = -0.326

Series 2 — technique: RNA Bind-n-Seq; form: RNA; medium: in vitro; tested at: 1 µM; setting: whole 134-nt RNA, ends assumed; added: 150 mM KCl; baseline: input library; reading: higher = stronger binding; quantity: log2 enrichment
Target: Ras GTPase-activating protein-binding protein 1, RRM domain (G3BP1, Homo sapiens, UniProt Q13283)
Chain of UniProt Q13283 (whole entry, looked up): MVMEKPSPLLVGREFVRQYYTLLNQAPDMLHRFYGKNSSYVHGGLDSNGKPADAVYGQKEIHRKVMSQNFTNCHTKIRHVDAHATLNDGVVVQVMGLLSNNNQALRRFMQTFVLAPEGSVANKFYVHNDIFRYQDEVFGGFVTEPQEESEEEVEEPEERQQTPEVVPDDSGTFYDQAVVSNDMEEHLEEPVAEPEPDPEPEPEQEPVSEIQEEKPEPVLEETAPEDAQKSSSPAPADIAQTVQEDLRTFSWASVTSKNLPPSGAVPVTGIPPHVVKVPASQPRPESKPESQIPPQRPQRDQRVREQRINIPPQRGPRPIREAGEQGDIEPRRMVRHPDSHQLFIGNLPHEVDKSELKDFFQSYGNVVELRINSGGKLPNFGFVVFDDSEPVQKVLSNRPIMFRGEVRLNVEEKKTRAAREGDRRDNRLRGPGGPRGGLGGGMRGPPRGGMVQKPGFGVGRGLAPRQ
Sequence = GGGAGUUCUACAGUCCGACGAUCUCAAGUCCUGUGCUACACAUCGUAUGUACCGAAUCGGGAGGGAAAGGGAAAGGGAAAGUAUUAUGUUACGCCGUUCGGAUCUGCACUUCCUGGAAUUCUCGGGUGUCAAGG; value = 0.749
Sequence = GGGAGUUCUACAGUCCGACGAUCGCUUAUGUAGACAUGAGGAAGAUUGGCAGUAGCCGGGGAAUGGUUUCUGCAUACCCUCGACAGCUAGAGUCAUUAAUCCGCUUAGCAGAAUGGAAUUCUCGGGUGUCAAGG; value = 0.108
Sequence = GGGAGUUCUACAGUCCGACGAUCUCAAGUCCUGUGCUACACAUCGUAUGUACCGAAUCGGGUUUUUGGGUGGGUGGGAAAGUAUUAUGUUACGCCGUUCGGAUCUGCACUUCCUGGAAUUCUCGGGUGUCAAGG; value = 0.298
Sequence = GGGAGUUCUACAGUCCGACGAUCCAAGUCCUGUGCUACACAUCGUAUGUACCGAAUCGGGAAAGGGUUUUUGGGUGGGAAAGUAUUAUGUUACGCCGUUCGGAUCUGCACUUCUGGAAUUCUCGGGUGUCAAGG; value = 0.675
Sequence = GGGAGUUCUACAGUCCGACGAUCCUCAAGUCCUGUGCUACACAUCGUAUGUACCGAAUCGGGGUUGGUUGGUUGGGGAAAGUAUUAUGUUACGCCGUUCGGAUCUGCACUUCCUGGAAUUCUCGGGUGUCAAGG; value = -0.254
Sequence = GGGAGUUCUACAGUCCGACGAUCAGUCCUGUGCUACACAUCGUAUGUACCGAAUCGUGUGUGUGUGUGUGUGUGUGUGUGUAAAGUAUUAUGUUACGCCGUUCGGAUCUGCACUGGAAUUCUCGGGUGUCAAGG; value = 0.118
Sequence = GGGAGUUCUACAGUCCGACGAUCGUCCUGUGCUACACAUCGUAUGUACCGAAUCGGGGUUUUUGGGUUUUUGGUUUUUGGGGAAAGUAUUAUGUUACGCCGUUCGGAUCUGCAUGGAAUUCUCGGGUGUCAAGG; value = -0.112
Sequence = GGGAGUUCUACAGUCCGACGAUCCCUGUGCUACACAUCGUAUGUACCGAAUCGGGGCCCCCCGGGCCCCCCGGCCCCCCGGGGAAAGUAUUAUGUUACGCCGUUCGGAUCUGCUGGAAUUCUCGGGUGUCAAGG; value = -0.686
Sequence = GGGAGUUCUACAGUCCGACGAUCUCAAGUCCUGUGCUACACAUCGUAUGUACCGAAUCGGGUUUGGGAGGGUUUGGGAAAGUAUUAUGUUACGCCGUUCGGAUCUGCACUUCCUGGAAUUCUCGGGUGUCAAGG; value = 0.574
Sequence = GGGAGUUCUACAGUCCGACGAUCUGGCCCUGGUGGCAUGCGGGGAGGAAGAGGUGGCCUCAUGGAUCGUGGUGGUCCCGGUGGAAUGUUCAGAGGUGGCCGUGGUGGAGAGAGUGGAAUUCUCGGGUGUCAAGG; value = 1.59
Sequence = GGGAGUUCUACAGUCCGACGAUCCAAGUCCUGUGCUACACAUCGUAUGUACCGAAUCGGAAAGGGGAAAGGAAAGGGGAAAGUAUUAUGUUACGCCGUUCGGAUCUGCACUUCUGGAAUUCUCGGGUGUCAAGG; value = -0.09
Sequence = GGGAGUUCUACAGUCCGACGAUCCAAGUCCUGUGCUACACAUCGUAUGUACCGAAUCGGGGUUGGGGUUGGGGUUGGGAAAGUAUUAUGUUACGCCGUUCGGAUCUGCACUUCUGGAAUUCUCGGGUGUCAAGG; value = 0.838
Sequence = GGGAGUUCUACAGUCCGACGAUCAAGUCCUGUGCUACACAUCGUAUGUACCGAAUCAAAUUUUUAAACCCAAAUUUAAAAAAGUAUUAUGUUACGCCGUUCGGAUCUGCACUUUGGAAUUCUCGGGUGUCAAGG; value = -0.282
Sequence = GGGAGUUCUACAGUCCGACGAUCAGUCCUGUGCUACACAUCGUAUGUACCGAAUCGGCCCCCGGGCCCCCGGGGCCCCCGGAAAGUAUUAUGUUACGCCGUUCGGAUCUGCACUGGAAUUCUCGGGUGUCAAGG; value = -0.559

Series 3 — technique: DHFR PCA, deep sequencing; medium: yeast; added: (+)-ABA 58 µM; baseline: wild-type fitted maximum; reading: higher = stronger binding; quantity: relative binding score
Target: ABI1, truncated, D143A, DHFR fusion (Arabidopsis thaliana)
Setting: methotrexate growth selection, single substitutions
Starting sequence: PYL1, truncated, DHFR fusion (Arabidopsis thaliana); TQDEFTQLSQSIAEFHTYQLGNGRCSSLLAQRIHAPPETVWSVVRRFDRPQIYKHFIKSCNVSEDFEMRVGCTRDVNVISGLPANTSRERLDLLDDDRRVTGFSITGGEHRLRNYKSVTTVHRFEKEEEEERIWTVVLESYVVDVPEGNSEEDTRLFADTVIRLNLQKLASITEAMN
Substitution = S42P; value = 66.7%
Substitution = R163S; value = 70.6%
Substitution = T101C; value = 85.2%
Substitution = I162Y; value = 9.91%
Substitution = V137W; value = -0.946%
Substitution = D96C; value = 26%
Substitution = N114S; value = 57.4%
Substitution = S171H; value = 84.9%
Substitution = G102F; value = -5.78%
Substitution = L91Q; value = 12%

Further values, each from its own experiment
Molecule = PhoQ, residues 284 288 289 292 302 303 NLGVHL; target = PhoP, residues 12 14 15 18 19 NMSSL (Escherichia coli, UniProt P23836); test = Sort-seq, item: YFP reporter; test system = E. coli; conditions = PhoQ-PhoP variant library, added: 10 µM Mg2+; scale = baseline: high Mg2+ state, higher = stronger signaling; quantity = fold induction; value = 0.44
